Measured values pooled from the literature.
Each line is one published result; not all experiments were run side by side. ± marks the error that the study gave.
CNR1: Cannabinoid receptor 1 (CNR1, Homo sapiens, UniProt P21554)
UniProt P21554, sequence (whole entry, looked up): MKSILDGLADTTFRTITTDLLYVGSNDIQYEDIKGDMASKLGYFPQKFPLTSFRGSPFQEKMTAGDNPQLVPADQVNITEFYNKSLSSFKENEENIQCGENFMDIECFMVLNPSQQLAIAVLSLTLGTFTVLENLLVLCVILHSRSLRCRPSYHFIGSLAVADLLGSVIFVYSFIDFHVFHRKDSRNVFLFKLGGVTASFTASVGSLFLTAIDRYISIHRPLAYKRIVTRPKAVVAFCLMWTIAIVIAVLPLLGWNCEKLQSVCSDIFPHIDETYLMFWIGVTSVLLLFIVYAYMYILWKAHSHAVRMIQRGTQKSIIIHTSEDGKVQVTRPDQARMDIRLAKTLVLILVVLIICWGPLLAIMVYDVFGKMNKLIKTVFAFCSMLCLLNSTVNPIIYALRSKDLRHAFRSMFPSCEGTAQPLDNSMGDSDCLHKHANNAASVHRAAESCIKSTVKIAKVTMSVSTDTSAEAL
GLP1R: Glucagon-like peptide 1 receptor (GLP1R, Homo sapiens, UniProt P43220)
UniProt P43220, sequence (whole entry, looked up): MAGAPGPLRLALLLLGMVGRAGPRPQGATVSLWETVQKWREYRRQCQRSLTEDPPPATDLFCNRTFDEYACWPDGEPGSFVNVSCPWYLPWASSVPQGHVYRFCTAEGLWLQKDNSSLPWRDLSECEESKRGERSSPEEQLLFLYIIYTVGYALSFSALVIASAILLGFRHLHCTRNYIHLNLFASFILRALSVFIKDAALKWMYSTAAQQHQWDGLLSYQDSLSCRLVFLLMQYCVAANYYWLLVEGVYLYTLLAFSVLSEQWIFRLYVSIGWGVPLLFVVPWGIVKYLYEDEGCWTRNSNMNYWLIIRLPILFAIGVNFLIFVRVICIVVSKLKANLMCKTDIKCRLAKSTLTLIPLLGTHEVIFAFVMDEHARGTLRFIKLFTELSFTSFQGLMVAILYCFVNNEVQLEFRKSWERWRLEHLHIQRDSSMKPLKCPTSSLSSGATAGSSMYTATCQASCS
Fsr quorum sensing protein: Fsr quorum sensing protein (Enterococcus faecalis, UniProt A0ACD6TCR9)
UniProt P41143, sequence (whole entry, looked up): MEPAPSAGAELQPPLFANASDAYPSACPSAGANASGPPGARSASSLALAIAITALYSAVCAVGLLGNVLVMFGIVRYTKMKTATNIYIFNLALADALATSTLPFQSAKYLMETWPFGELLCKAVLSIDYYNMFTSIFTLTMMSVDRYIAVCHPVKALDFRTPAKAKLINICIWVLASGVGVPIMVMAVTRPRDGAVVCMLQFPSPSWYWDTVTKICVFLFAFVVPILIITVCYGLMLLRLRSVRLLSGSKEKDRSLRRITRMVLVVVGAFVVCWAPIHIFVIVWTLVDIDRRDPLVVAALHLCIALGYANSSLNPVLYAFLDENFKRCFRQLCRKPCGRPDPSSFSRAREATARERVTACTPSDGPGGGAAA
UniProt P48546, sequence (whole entry, looked up): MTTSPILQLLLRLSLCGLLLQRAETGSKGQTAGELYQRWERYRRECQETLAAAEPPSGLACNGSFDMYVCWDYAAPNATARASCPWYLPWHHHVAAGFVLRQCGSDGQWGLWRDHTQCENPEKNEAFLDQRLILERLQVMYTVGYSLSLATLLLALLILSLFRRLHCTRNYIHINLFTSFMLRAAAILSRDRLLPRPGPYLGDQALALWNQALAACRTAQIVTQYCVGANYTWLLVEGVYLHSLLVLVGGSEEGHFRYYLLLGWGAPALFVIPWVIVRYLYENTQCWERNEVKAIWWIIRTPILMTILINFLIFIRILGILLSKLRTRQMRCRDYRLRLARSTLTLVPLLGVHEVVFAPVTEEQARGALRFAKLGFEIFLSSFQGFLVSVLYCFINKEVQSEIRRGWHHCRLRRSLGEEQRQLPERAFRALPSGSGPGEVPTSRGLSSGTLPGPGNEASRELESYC
UniProt Q9GZQ4, sequence (whole entry, looked up): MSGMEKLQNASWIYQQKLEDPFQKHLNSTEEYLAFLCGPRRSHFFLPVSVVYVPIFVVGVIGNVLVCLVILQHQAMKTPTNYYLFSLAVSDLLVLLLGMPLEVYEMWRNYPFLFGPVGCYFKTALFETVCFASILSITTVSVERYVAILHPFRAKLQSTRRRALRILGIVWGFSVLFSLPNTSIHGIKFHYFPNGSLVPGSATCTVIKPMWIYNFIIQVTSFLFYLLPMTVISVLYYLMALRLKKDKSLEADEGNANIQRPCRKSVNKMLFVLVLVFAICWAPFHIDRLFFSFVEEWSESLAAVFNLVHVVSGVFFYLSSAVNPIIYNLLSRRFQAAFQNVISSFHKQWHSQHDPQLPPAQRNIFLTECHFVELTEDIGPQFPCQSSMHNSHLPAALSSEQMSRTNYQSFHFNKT
UniProt Q8TDU6, sequence (whole entry, looked up): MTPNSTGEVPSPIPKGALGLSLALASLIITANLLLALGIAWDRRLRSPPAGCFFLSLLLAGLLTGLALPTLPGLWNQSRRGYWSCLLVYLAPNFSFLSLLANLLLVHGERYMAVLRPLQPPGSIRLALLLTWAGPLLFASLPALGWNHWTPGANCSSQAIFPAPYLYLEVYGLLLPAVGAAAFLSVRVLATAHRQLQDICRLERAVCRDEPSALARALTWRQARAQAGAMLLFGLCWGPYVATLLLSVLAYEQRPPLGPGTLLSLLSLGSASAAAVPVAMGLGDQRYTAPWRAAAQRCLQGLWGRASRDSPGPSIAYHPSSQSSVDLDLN
UniProt P33032, sequence (whole entry, looked up): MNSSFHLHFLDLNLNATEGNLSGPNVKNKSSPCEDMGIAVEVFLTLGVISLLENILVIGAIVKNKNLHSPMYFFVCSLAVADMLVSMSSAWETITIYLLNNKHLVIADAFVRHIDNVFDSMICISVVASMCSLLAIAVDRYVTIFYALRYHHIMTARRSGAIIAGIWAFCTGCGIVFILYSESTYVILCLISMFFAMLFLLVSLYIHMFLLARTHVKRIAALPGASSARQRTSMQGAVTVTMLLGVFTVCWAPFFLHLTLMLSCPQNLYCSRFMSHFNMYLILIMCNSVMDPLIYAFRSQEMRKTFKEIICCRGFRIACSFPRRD
UniProt Q07001, sequence (whole entry, looked up): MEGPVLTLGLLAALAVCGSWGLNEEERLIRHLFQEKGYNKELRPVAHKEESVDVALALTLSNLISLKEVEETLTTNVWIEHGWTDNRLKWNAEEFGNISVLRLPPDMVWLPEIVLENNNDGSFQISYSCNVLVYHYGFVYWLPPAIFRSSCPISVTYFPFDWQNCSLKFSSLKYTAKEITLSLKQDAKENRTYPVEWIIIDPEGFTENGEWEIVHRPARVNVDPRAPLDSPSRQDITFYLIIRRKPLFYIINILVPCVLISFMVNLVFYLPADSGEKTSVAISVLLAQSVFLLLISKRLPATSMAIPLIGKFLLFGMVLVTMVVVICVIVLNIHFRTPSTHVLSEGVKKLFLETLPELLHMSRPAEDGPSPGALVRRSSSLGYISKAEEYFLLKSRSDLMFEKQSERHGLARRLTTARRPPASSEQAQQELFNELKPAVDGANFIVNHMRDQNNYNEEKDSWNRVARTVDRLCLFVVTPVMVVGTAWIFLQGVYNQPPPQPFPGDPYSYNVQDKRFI
UniProt P02708, sequence (whole entry, looked up): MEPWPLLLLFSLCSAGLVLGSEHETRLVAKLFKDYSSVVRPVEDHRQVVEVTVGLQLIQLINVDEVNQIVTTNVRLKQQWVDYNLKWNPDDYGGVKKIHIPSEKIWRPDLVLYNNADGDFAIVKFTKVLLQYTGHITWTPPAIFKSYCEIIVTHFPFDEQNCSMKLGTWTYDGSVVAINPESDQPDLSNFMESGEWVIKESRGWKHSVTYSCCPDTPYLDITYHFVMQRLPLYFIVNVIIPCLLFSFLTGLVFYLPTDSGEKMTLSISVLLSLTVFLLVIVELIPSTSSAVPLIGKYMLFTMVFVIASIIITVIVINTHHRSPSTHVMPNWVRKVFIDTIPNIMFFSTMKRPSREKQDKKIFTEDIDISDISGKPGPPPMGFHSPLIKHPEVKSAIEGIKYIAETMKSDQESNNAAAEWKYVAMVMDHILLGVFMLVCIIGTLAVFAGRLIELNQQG
UniProt Q9UKP6, sequence (whole entry, unmodified, looked up): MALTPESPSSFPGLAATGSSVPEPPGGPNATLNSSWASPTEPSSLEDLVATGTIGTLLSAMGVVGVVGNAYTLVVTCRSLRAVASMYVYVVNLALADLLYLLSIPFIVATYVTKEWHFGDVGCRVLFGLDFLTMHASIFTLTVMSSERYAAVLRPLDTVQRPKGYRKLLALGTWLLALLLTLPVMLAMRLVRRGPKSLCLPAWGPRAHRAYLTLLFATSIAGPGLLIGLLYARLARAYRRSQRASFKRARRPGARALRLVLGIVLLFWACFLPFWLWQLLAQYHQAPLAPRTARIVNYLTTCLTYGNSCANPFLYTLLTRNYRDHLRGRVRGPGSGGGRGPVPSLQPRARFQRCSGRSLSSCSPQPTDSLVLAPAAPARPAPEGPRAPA

Structure (SMILES) | target | assay | system | conditions | EC50
CCCCCn1ccc(C(=O)NC(C)(C)c2ccc(NS(C)(=O)=O)cc2)n1 | CNR1 | calcium signal, agonist |  |  | > 10000 nM
CC[C@H](C)[C@H](NC(=O)[C@H](Cc1ccccc1)NC(=O)[C@H](CCC(=O)O)NC(=O)[C@H](CCCCN)NC(=O)[C@H](C)NC(=O)[C@H](C)NC(=O)[C@H](CCC(N)=O)NC(=O)CNC(=O)[C@H](CCC(=O)O)NC(=O)[C@H](CC(C)C)NC(=O)[C@H](Cc1ccc(O)cc1)NC(=O)[C@H](CO)NC(=O)[C@H](CO)NC(=O)[C@@H](NC(=O)[C@H](CC(=O)O)NC(=O)[C@H](CO)NC(=O)[C@@H](NC(=O)[C@H](Cc1ccccc1)NC(=O)[C@@H](NC(=O)CNC(=O)[C@H](CCC(=O)O)NC(=O)CNC(=O)[C@H](Cc1c[nH]cn1)NC(C)=O)[C@@H](C)O)[C@@H](C)O)C(C)C)C(=O)N[C@@H](C)C(=O)N[C@@H](Cc1c[nH]c2ccccc12)C(=O)N[C@@H](CC(C)C)C(=O)N[C@H](C(=O)N[C@@H](CCCCN)CN(CC(=O)N[C@@H](CCCNC(=N)N)C(=O)N[C@@H](CCCCN)CN(CC(N)=O)S(C)(=O)=O)S(C)(=O)=O)C(C)C | GLP1R | reporter gene, agonist, luciferase |  |  | 1 nM
CC[C@H](C)[C@H]1C(=O)N(Cc2cc3ccccc3c3ccccc23)C[C@@H]2N(C(=O)NCCCC(F)(F)F)CCC(=O)N12 | clpP (Staphylococcus aureus, UniProt Q2G036, H83Y) | activator |  |  | 1900 ± 300 nM
CCCCCn1ccc(C(=O)NC(C)(C)c2ccccc2F)n1 | CNR1 | calcium signal, agonist |  |  | 25.3 nM
CCCCCCCCCCCCCCCC(=O)N[C@@H](CCC(=O)NCCCC[C@H](NC(=O)[C@H](CC(=O)O)NC(=O)[C@H](CO)NC(=O)[C@@H](NC(=O)[C@H](Cc1ccccc1)NC(=O)[C@@H](NC(=O)CNC(=O)[C@H](CCC(N)=O)NC(=O)[C@H](C)NC(=O)[C@H](Cc1c[nH]cn1)NCC(F)(F)F)[C@@H](C)O)[C@@H](C)O)C(=O)N[C@@H](CO)C(=O)N[C@@H](CCCCN)C(=O)N[C@@H](Cc1ccc(O)cc1)C(=O)N[C@@H](CC(C)C)C(=O)N[C@@H](CC(=O)O)C(=O)N[C@@H](CCC(=O)O)C(=O)N[C@@H](CCCNC(=N)N)C(=O)N[C@@H](C)C(=O)N[C@@H](C)C(=O)N[C@@H](CCC(N)=O)C(=O)N[C@@H](CC(=O)O)C(=O)N[C@@H](Cc1ccccc1)C(=O)N[C@H](C(=O)N[C@@H](CCC(N)=O)C(=O)N[C@@H](Cc1c[nH]c2ccccc12)C(=O)N[C@@H](CC(C)C)C(=O)N[C@@H](CC(C)C)C(=O)N[C@@H](CC(=O)O)C(=O)NCC(=O)NCC(=O)N1CCC[C@H]1C(=O)N[C@@H](CO)C(=O)N[C@@H](CO)C(=O)NCC(=O)N[C@@H](C)C(=O)N1CCC[C@H]1C(=O)N1CCC[C@H]1C(=O)N1CCC[C@H]1C(=O)N[C@@H](CO)C(N)=O)C(C)C)C(=O)O | GIPR (Homo sapiens, UniProt P48546) | reporter gene, agonist, luciferase |  |  | 0.00316 nM
CC(C)[C@H](NC(=O)[C@@H]1CSSC(C)(C)[C@H](NC(=O)[C@@H](N)CC(=O)O)C(=O)N[C@@H](Cc2ccccc2)C(=O)N[C@@H](Cc2c[nH]c3ccccc23)C(=O)N[C@@H](CCCCN)C(=O)N[C@@H](Cc2ccc(O)cc2)C(=O)N1)C(=O)O | UTS2R (Homo sapiens, UniProt Q9UKP6, F131A) | IP1 accumulation, agonist, HTRF | HEK293T | 1 h, 37 °C, F131A mutant, 3.33 | 2.51 nM
Cc1cc(O)cc(C)c1C[C@H](N)C(=O)N[C@H](CCCNC(=N)N)C(=O)N[C@@H](Cc1ccccc1)C(=O)N(C)CC(=O)N(C)Cc1cc(C(F)(F)F)cc(C(F)(F)F)c1 | OPRD1 (Homo sapiens, UniProt P41143) | cAMP, agonist, BRET |  |  | 0.42 nM
CCCCCn1ccc(C(=O)NC(C)(C)c2ccc(C)cc2)n1 | CNR1 | calcium signal, agonist |  |  | 127 nM
O=C(O)CCn1c(=O)oc2cc(Cl)c(Cl)cc21 | CHRNA1/Acetylcholine receptor subunit delta (Homo sapiens, UniProt P02708+Q07001) | opener |  | median | > 50100 nM
CCCCCCCCCCCCCCCCCC(=O)NC[C@H]1CC[C@H](C(=O)N[C@@H](CCC(=O)NCCCOCCOCCOCCCNC(=O)COCC(=O)N[C@@H](Cc2ccc(O)cc2)C(=O)NC(C)(Cc2ccccc2)C(=O)N[C@@H](CC(C)C)C(=O)N[C@@H](CCCC)C(=O)N[C@@H](CCCNC(=N)N)C(=O)N2CCC[C@H]2C(=O)N[C@@H](CCCNC(=N)NC)C(=O)N[C@@H](CC(N)=O)C(N)=O)C(=O)O)CC1 (stereo partly drawn) | NMUR2 (Homo sapiens, UniProt Q9GZQ4) | inositol phosphate, agonist, TR-FRET |  |  | 9.9 nM
CCCCCn1ccc(C(=O)NC(C)(C)c2ccc(-c3nn[nH]n3)cc2)n1 | CNR1 | calcium signal, agonist |  |  | > 10000 nM
CC(CCC(=O)O)C1CCC2C3C(O)CC4CC(OS(=O)(=O)O)CCC4(C)C3CC(O)C12C (stereo not drawn) | GPBAR1 (Homo sapiens, UniProt Q8TDU6) | agonist |  |  | > 200000 nM
CC[C@H](C)[C@H](NC(=O)[C@H](Cc1ccccc1)NC(=O)[C@H](CCC(=O)O)NC(=O)[C@H](CCCCN)NC(=O)[C@H](C)NC(=O)[C@H](C)NC(=O)[C@H](CCC(N)=O)NC(=O)CNC(=O)[C@H](CCC(=O)O)NC(=O)[C@H](CC(C)C)NC(=O)[C@H](Cc1ccc(O)cc1)NC(=O)[C@H]1CNC[C@@H]1NC(=O)[C@H](CO)NC(=O)C(C)(C)NC(=O)[C@H](CC(=O)O)NC(=O)[C@H](CO)NC(=O)[C@@H](NC(=O)[C@H](Cc1ccccc1)NC(=O)[C@@H](NC(=O)CNC(=O)[C@H](CCC(=O)O)NC(=O)[C@H](C)NC(=O)[C@@H](N)Cc1c[nH]cn1)[C@@H](C)O)[C@@H](C)O)C(=O)N[C@@H](C)C(=O)N[C@@H](Cc1c[nH]c2ccccc12)C(=O)N[C@@H](CC(C)C)C(=O)N[C@H](C(=O)N[C@@H](CCCCN)C(=O)NCC(=O)N[C@@H](CCCNC(=N)N)C(N)=O)C(C)C | GLP1R | cAMP, agonist, luciferase |  |  | 0.0631 nM
CC(C)C[C@H](NC(=O)[C@H](Cc1ccc(O)cc1)NC(=O)[C@H](CO)NC(=O)[C@H](CO)NC(=O)[C@@H](NC(=O)[C@H](CC(=O)O)NC(=O)[C@H](CO)NC(=O)[C@@H](NC(=O)[C@H](Cc1ccccc1)NC(=O)[C@@H](NC(=O)CNC(=O)[C@H](CCC(=O)O)NC(=O)[C@H](C)NC(=O)[C@@H](N)Cc1c[nH]cn1)[C@@H](C)O)[C@@H](C)O)C(C)C)C(=O)N[C@@H](CCC(=O)O)C(=O)NCC(=O)N[C@@H](CCC(N)=O)C(=O)N[C@@H](C)C(=O)N[C@@H](C)C(=O)N[C@@H](CCCCN)C(=O)N[C@@H](CCC(=O)O)C(=O)N[C@@H](Cc1ccccc1)CN(CC(=O)N[C@@H](C)C(=O)N[C@@H](Cc1c[nH]c2ccccc12)CN(CC(=O)N[C@H](C(=O)N[C@@H](CCCCN)CN(CC(=O)N[C@@H](CCCNC(=N)N)C(=O)N[C@@H](CCCCN)CN(CC(N)=O)S(C)(=O)=O)S(C)(=O)=O)C(C)C)S(=O)(=O)CC(C)C)S(=O)(=O)CC(C)C | GLP1R | reporter gene, agonist, luciferase |  |  | > 1000 nM
CC[C@H](C)[C@@H]1NC(=O)[C@H](CC(N)=O)NC(=O)[C@@H]2CCCN2C(=O)[C@@H](NC(=O)[C@H](CC(N)=O)NC(=O)[C@@H](N)CCC(N)=O)COC(=O)[C@H](CCSC)NC(=O)[C@H](Cc2c[nH]c3ccccc23)NC(=O)[C@H](CCC(N)=O)NC(=O)CNC(=O)CN(Cc2ccccc2)C1=O | Fsr quorum sensing protein | Fsr quorum sensing, agonist, β-galactosidase reporter |  |  | 136 nM
CC[C@H](C)[C@H](NC(=O)[C@H](Cc1ccccc1)NC(=O)[C@H](CCC(=O)O)NC(=O)[C@H](CCCCN)NC(=O)[C@H](C)NC(=O)[C@H](C)NC(=O)[C@H](CCC(N)=O)NC(=O)CNC(=O)[C@H](CCC(=O)O)NC(=O)[C@H](CC(C)C)NC(=O)[C@H](Cc1ccc(O)cc1)NC(=O)[C@H](CO)NC(=O)[C@H](CO)NC(=O)[C@@H](NC(=O)[C@H](CC(=O)O)NC(=O)[C@H](CO)NC(=O)[C@@H](NC(=O)[C@H](Cc1ccccc1)NC(=O)[C@@H](NC(=O)CNC(=O)[C@H](CCC(=O)O)NC(=O)C(C)(C)NC(=O)[C@H](Cc1c[nH]cn1)NC(C)=O)[C@@H](C)O)[C@@H](C)O)C(C)C)C(=O)N[C@@H](C)C(=O)N[C@@H](Cc1c[nH]c2ccccc12)C(=O)N[C@@H](CC(C)C)C(=O)N[C@H](C(=O)N[C@@H](CCCCN)CN(CC(=O)N[C@@H](CCCNC(=N)N)C(=O)N[C@@H](CCCCN)CN(CC(N)=O)S(C)(=O)=O)S(C)(=O)=O)C(C)C | GLP1R | reporter gene, agonist, luciferase |  |  | 0.44 nM
CC[C@H](C)[C@@H]1NC(=O)CN(CC(N)=O)C(=O)[C@@H]2CCCN2C(=O)[C@@H](NC(=O)[C@H](CC(N)=O)NC(=O)[C@@H](N)CCC(N)=O)COC(=O)[C@H](CCSC)NC(=O)[C@H](Cc2c[nH]c3ccccc23)NC(=O)[C@H](CCC(N)=O)NC(=O)CNC(=O)[C@H](Cc2ccccc2)NC1=O | Fsr quorum sensing protein | Fsr quorum sensing, agonist, β-galactosidase reporter |  |  | > 10000 nM
CC[C@H](C)[C@H](NC(=O)[C@H](Cc1ccccc1)NC(=O)[C@H](CCC(=O)O)NC(=O)[C@H](CCCNC(=N)N)NC(=O)[C@@H](NC(=O)[C@H](C)NC(=O)[C@H](CCC(=O)O)NC(=O)[C@H](CCC(=O)O)NC(=O)[C@H](CCC(=O)O)NC(=O)[C@H](CC(C)C)NC(=O)[C@H](Cc1ccc(O)cc1)NC(=O)[C@H](CCCCN)NC(=O)[C@H](CO)NC(=O)[C@H](CC(C)C)NC(=O)[C@H](CC(=O)O)NC(=O)[C@H](CO)NC(=O)[C@@H](NC(=O)[C@H](Cc1ccccc1)NC(=O)[C@@H](NC(=O)CNC(=O)[C@H](CCC(N)=O)NC(=O)[C@@H](CO)NC(=O)[C@@H](N)Cc1c[nH]cn1)[C@@H](C)O)[C@@H](C)O)C(C)C)C(=O)N[C@@H](C)C(=O)N[C@@H](Cc1c[nH]c2ccccc12)C(=O)N[C@@H](CC(C)C)C(=O)N[C@@H](CCCCN)C(=O)N[C@@H](CC(N)=O)C(=O)NCC(=O)NCC(=O)N1CCC[C@H]1C(=O)N[C@@H](CO)C(=O)N[C@@H](Cc1ccc(O)cc1)C(=O)N[C@@H](CO)C(=O)N[C@@H](CCSC)C(=O)N[C@@H](CCC(=O)O)C(=O)N[C@@H](Cc1c[nH]cn1)C(=O)N[C@@H](Cc1ccccc1)C(=O)N[C@@H](CCCNC(=N)N)C(=O)N[C@@H](Cc1c[nH]c2ccccc12)C(=O)NCC(=O)N[C@@H](CCCCN)C(=O)N1CCC[C@H]1C(=O)N[C@H](C(N)=O)C(C)C | MC5R (Homo sapiens, UniProt P33032) | cAMP, agonist, TR-FRET |  |  | 274 nM

Excerpt of the above:
Structure (SMILES) | target | assay | system | conditions | EC50
O=C(O)CCn1c(=O)oc2cc(Cl)c(Cl)cc21 | CHRNA1/Acetylcholine receptor subunit delta (Homo sapiens, UniProt P02708+Q07001) | opener |  | median | > 50100 nM
CCCCCn1ccc(C(=O)NC(C)(C)c2ccc(-c3nn[nH]n3)cc2)n1 | CNR1 | calcium signal, agonist |  |  | > 10000 nM
CC[C@H](C)[C@H](NC(=O)[C@H](Cc1ccccc1)NC(=O)[C@H](CCC(=O)O)NC(=O)[C@H](CCCNC(=N)N)NC(=O)[C@@H](NC(=O)[C@H](C)NC(=O)[C@H](CCC(=O)O)NC(=O)[C@H](CCC(=O)O)NC(=O)[C@H](CCC(=O)O)NC(=O)[C@H](CC(C)C)NC(=O)[C@H](Cc1ccc(O)cc1)NC(=O)[C@H](CCCCN)NC(=O)[C@H](CO)NC(=O)[C@H](CC(C)C)NC(=O)[C@H](CC(=O)O)NC(=O)[C@H](CO)NC(=O)[C@@H](NC(=O)[C@H](Cc1ccccc1)NC(=O)[C@@H](NC(=O)CNC(=O)[C@H](CCC(N)=O)NC(=O)[C@@H](CO)NC(=O)[C@@H](N)Cc1c[nH]cn1)[C@@H](C)O)[C@@H](C)O)C(C)C)C(=O)N[C@@H](C)C(=O)N[C@@H](Cc1c[nH]c2ccccc12)C(=O)N[C@@H](CC(C)C)C(=O)N[C@@H](CCCCN)C(=O)N[C@@H](CC(N)=O)C(=O)NCC(=O)NCC(=O)N1CCC[C@H]1C(=O)N[C@@H](CO)C(=O)N[C@@H](Cc1ccc(O)cc1)C(=O)N[C@@H](CO)C(=O)N[C@@H](CCSC)C(=O)N[C@@H](CCC(=O)O)C(=O)N[C@@H](Cc1c[nH]cn1)C(=O)N[C@@H](Cc1ccccc1)C(=O)N[C@@H](CCCNC(=N)N)C(=O)N[C@@H](Cc1c[nH]c2ccccc12)C(=O)NCC(=O)N[C@@H](CCCCN)C(=O)N1CCC[C@H]1C(=O)N[C@H](C(N)=O)C(C)C | MC5R (Homo sapiens, UniProt P33032) | cAMP, agonist, TR-FRET |  |  | 274 nM
